# Measured values gathered from unrelated publications.
# Lines come from different studies, so protocols differ.
# CSNK1D: Casein kinase I isoform delta (CSNK1D, Homo sapiens, UniProt P48730)
# Chain of UniProt P48730 (whole entry, looked up): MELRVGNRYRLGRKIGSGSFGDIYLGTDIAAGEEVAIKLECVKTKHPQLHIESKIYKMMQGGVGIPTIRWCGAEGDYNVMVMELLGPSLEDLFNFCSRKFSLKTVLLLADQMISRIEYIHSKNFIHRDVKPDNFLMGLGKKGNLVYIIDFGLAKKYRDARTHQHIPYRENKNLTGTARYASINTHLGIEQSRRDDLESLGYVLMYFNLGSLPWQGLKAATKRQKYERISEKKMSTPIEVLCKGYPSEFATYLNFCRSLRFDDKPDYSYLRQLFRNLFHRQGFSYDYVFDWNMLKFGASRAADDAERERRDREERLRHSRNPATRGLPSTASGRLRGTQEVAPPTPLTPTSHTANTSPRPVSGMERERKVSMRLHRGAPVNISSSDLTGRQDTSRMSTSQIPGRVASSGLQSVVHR
# MTNR1A: Melatonin receptor type 1A (MTNR1A, Homo sapiens, UniProt P48039)
# Chain of UniProt P48039 (whole entry, looked up): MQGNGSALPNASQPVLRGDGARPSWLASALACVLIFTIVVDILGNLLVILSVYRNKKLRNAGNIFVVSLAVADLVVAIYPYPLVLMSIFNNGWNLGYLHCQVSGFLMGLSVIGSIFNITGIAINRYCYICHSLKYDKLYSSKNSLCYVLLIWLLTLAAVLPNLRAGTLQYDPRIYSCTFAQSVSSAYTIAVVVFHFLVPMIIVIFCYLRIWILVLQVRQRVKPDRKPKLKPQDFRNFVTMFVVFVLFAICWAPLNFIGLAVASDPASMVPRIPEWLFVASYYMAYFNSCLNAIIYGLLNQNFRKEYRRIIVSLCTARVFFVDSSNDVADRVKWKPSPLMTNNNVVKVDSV
# CA9: Carbonic anhydrase 9 (CA9, Homo sapiens, UniProt Q16790)
# CSNK1A1: Casein kinase I isoform alpha (CSNK1A1, Homo sapiens, UniProt P48729)
# Chain of UniProt P48729 (whole entry, looked up): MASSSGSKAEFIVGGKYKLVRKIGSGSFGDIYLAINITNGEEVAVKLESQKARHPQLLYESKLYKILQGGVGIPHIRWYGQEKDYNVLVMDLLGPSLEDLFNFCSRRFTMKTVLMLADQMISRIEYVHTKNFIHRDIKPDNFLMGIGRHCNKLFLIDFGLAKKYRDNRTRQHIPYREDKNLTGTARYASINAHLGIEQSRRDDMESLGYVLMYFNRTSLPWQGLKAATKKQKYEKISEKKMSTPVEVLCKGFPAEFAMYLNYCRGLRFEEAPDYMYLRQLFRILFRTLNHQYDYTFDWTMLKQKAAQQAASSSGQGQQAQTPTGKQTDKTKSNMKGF
# Chain of UniProt Q99640 (whole entry, looked up): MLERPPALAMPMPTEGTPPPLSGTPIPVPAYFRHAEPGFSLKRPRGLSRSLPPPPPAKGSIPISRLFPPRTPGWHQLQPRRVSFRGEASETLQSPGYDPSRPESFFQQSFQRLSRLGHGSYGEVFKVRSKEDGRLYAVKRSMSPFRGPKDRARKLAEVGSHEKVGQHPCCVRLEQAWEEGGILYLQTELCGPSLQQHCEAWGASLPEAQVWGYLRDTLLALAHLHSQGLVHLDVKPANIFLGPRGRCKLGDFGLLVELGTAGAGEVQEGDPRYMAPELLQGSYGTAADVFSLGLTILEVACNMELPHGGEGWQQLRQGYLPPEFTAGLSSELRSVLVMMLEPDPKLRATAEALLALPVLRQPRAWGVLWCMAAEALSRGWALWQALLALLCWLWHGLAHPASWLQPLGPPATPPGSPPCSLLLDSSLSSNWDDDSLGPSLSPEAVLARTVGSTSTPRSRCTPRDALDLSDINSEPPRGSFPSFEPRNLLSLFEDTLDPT
# Chain of UniProt P30542 (whole entry, looked up): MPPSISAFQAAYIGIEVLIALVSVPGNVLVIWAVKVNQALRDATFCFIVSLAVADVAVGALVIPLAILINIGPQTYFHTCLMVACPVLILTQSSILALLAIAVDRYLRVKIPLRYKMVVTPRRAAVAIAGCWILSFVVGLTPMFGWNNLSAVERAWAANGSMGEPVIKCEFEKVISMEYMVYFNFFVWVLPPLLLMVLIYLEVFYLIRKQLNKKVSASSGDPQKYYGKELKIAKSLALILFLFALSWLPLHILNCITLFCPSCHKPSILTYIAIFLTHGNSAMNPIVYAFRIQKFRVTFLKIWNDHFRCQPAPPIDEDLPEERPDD
# Chain of UniProt Q9P286 (whole entry, looked up): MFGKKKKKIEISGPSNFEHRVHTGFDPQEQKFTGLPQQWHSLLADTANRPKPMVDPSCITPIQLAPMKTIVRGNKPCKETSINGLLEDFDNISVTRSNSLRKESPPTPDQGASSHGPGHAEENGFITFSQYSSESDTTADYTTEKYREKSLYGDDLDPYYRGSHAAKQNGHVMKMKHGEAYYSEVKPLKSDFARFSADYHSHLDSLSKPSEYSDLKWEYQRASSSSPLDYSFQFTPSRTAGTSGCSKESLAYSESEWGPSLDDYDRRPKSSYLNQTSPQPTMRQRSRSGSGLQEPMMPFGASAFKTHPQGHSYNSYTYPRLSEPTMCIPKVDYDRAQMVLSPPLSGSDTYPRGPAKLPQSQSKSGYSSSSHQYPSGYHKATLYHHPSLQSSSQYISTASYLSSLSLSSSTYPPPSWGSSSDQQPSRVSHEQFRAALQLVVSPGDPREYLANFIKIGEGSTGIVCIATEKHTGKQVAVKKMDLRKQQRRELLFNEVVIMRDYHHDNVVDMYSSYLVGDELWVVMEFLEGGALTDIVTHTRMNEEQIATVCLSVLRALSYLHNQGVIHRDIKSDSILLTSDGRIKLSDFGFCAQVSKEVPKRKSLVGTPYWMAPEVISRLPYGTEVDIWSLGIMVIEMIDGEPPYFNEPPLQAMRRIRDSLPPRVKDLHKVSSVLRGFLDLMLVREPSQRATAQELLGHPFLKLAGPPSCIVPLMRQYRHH
# Chain of UniProt Q9H2K8 (whole entry, looked up): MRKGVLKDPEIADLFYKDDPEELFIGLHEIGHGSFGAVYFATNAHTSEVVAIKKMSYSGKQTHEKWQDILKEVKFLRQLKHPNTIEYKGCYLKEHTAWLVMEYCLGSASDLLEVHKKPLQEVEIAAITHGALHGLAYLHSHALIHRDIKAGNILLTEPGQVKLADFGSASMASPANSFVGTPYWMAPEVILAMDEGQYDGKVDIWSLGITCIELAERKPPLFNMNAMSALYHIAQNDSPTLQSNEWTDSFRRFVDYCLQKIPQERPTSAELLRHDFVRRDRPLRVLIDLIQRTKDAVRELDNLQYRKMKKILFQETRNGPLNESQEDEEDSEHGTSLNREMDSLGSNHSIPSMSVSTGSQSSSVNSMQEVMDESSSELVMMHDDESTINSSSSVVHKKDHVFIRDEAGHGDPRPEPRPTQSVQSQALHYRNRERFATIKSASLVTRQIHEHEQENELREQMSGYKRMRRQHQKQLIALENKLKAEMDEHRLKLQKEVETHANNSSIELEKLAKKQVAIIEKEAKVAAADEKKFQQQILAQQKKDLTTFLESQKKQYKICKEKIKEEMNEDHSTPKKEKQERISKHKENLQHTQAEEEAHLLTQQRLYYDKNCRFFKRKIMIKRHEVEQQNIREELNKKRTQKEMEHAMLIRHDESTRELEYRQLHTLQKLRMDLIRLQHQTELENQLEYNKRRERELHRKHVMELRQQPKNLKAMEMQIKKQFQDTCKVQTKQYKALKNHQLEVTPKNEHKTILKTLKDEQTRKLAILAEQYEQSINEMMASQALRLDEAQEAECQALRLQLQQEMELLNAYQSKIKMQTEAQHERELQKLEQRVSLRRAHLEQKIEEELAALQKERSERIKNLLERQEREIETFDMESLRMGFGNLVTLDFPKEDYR
# Chain of UniProt Q9UK32 (whole entry, looked up): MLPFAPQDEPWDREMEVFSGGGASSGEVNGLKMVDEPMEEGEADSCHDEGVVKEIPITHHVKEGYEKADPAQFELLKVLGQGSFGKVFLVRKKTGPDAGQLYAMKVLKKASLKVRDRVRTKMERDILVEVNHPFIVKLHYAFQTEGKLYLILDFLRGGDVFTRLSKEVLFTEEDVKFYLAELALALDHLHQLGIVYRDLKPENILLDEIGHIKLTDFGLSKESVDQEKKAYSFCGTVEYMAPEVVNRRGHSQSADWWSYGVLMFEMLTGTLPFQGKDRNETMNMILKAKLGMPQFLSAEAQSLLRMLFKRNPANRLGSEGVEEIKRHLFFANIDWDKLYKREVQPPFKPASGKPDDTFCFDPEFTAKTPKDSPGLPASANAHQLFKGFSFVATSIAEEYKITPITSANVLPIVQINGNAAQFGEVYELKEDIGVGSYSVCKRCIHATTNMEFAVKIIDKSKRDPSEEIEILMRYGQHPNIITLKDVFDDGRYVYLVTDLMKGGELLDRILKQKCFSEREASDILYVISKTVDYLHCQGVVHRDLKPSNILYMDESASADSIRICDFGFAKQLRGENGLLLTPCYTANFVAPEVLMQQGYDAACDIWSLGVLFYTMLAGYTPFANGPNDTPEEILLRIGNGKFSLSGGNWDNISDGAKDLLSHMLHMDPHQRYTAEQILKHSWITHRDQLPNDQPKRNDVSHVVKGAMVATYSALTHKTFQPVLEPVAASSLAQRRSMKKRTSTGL
# Chain of UniProt Q96GD4 (whole entry, looked up): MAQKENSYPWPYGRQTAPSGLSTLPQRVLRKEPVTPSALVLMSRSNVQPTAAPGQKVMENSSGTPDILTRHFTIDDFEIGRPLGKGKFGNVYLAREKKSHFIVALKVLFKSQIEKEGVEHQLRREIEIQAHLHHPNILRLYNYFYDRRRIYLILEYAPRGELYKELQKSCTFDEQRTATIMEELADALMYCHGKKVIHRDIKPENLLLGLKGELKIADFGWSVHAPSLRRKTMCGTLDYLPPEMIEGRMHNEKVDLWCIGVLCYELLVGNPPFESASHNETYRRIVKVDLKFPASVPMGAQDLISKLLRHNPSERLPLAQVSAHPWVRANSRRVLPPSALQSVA
Compound,tested on,test,test system,conditions,measurement,value
CCc1ccc(C2C(C#N)C(=N)SC(=N)C2C#N)cc1 (stereo not shown),CSNK1D,"binding, SPR",,,Kd,> 50000 nM
C1=C/COCc2cc(ccc2OCCN2CCCC2)Nc2nccc(n2)-c2cccc(c2)COC/1,"Membrane-associated tyrosine- and threonine-specific cdc2-inhibitory kinase (PKMYT1, Homo sapiens, UniProt Q99640)",cell-free assay,,0.1 µM,remaining signal,95%
COC(=O)c1cccc(N(C)CCc2cnccn2)n1,MTNR1A,"cAMP, agonist, luciferase",,,EC50,1440 nM
Nc1ncnc2occ(-c3ccc(NC(=O)Nc4cc(C(F)(F)F)ccc4F)cc3)c12,"Serine/threonine-protein kinase Nek10 (NEK10, Homo sapiens, UniProt Q6ZWH5)","cell-free assay, inhibitor",,20 µM,remaining signal,3.2%
NS(=O)(=O)c1ccc(F)c(CNc2c(S(N)(=O)=O)ccc3ccccc23)c1,CA9,"enzyme activity, inhibitor",,,IC50,50 nM
NC(=O)c1ccc(N)cc1Cl,CSNK1D,"binding, SPR",,,Kd,> 50000 nM
CC(=O)c1cccc(N(C)CCc2cnccn2)n1,MTNR1A,"cAMP, agonist, luciferase",,,EC50,378 nM
C=CC(=O)N1CCC(COCC(=O)N2CCN(c3nc(-c4cnc(N)nc4C(F)F)nc(N4CCOC[C@@H]4C)n3)CC2)CC1,"Mitogen-activated protein kinase kinase kinase 20 (MAP3K20, Homo sapiens, UniProt Q9NYL2)","binding, competition with immobilised ligand",,1 µM,remaining binding,100%
O=c1nc(N2CCN(CC3CCCCC3)CC2)sc2c([N+](=O)[O-])cc(C(F)(F)F)cc12,,,"CD-1 mouse, lung","intravenous, 10 mg/kg, 2 h",concentration,1410 ng/mL
Cc1ccc(NC(=O)COC(=O)c2ccc(O)c(-c3ccccc3)c2)cc1S(N)(=O)=O,CA9,"enzyme activity, inhibitor",,,IC50,279 nM
Cc1cc([C@@H](C)Nc2ccccc2C(=O)O)c2nc(N3CCC(F)(F)CC3)c(C#N)c(=O)n2c1,"Aurora kinase B (AURKB, Homo sapiens, UniProt Q96GD4)","binding, competition with immobilised ligand",,1 µM,remaining binding,0%
CCCCC(=O)Nc1ccc(-c2ccc3ncn(CCC)c(=O)c3c2)cn1,"Serine/threonine-protein kinase TAO3 (TAOK3, Homo sapiens, UniProt Q9H2K8)","binding, competition with immobilised ligand",,0.5 µM,remaining binding,100%
O=C(NC1CCCCC1)C(=O)c1c[nH]c2ccccc12,CSNK1A1,"binding, SPR",,,Kd,6000 nM
CCOC(=O)c1nc(N(C)C(C)C[S+](C)[O-])ccc1Br (stereo not shown),MTNR1A,"cAMP, agonist, luciferase",,,EC50,33.8 nM
COc1cccc(-c2n[nH]c(SCc3ccccn3)n2)c1OC,,,"female Sprague-Dawley rat, plasma","oral, 10 mg/kg, 8 h, single dose",concentration,14.5 ng/mL
CNc1cncc(Cl)n1,CSNK1A1,"binding, SPR",,,Kd,> 50000 nM
CCOC(=O)c1nc(N2CCC(C(N)=O)C2)ccc1Br (stereo not shown),MTNR1A,"cAMP, agonist, luciferase",,,EC50,106 nM
NS(=O)(=O)c1ccc(N2CCOCC2)c(C(=O)Nc2ccc(NC(=O)c3cccs3)cc2)c1,CA9,"enzyme activity, inhibitor",,,IC50,40.7 nM
CCOC(=O)c1nc(N(C)CCc2noc(C)n2)ccc1Br,MTNR1A,"cAMP, agonist, luciferase",,,EC50,69.3 nM
NS(=O)(=O)c1ccc(NC(=O)N2CCN(Cc3ccc(-c4cccc(Cl)c4)s3)CC2)cc1,CA9,"enzyme activity, inhibitor",,,IC50,53 nM
CN(C)c1ncnc2c1ncn2[C@@H]1O[C@H](CO)[C@@H](O)[C@H]1O,"Adenosine receptor A1 (ADORA1, Homo sapiens, UniProt P30542)","G protein activation, agonist",,,EC50,1800 nM
COc1cc(-c2cncc3c2CN(C)Cc2cc(N4CCNCC4)ccc2-3)cc(OC)c1OC,"Ribosomal protein S6 kinase alpha-6 (RPS6KA6, Homo sapiens, UniProt Q9UK32)","enzyme activity, inhibitor",,1 µM,remaining activity,125%
FC(F)(F)c1cscc1CNc1cccc(-c2nnc[nH]2)c1,MTNR1A,"cAMP, agonist, luciferase",,,EC50,162 nM
Cc1ccc(Nc2ccccc2C(=O)OCC(=O)Nc2ccc(S(N)(=O)=O)cc2)cc1,CA9,"enzyme activity, inhibitor",,,IC50,77 nM
c1ccc(-c2oc3ncnc(NCCCN4CCOCC4)c3c2-c2ccccc2)cc1,CSNK1A1,"binding, SPR",,,Kd,> 50000 nM
CNC(=O)c1cccc2c1CC(C)N2Cc1ccoc1C(=O)Nc1ccc(S(N)(=O)=O)cc1 (stereo not shown),CA9,"enzyme activity, inhibitor",,,IC50,41.7 nM
Oc1ccc(C2CNCCN2)cc1 (stereo not shown),CSNK1A1,"binding, SPR",,,Kd,> 50000 nM
CNc1ncc2c(/C=C/C(=O)N3CCC(OC)CC3)nn(Cc3cccc(C(F)(F)F)c3)c2n1,"Serine/threonine-protein kinase PAK 5 (PAK5, Homo sapiens, UniProt Q9P286)","enzyme activity, inhibitor, radiometric",,1 µM,remaining activity,93%

# A few entries again:
Compound,tested on,test,test system,conditions,measurement,value
CN(C)c1ncnc2c1ncn2[C@@H]1O[C@H](CO)[C@@H](O)[C@H]1O,"Adenosine receptor A1 (ADORA1, Homo sapiens, UniProt P30542)","G protein activation, agonist",,,EC50,1800 nM
COc1cc(-c2cncc3c2CN(C)Cc2cc(N4CCNCC4)ccc2-3)cc(OC)c1OC,"Ribosomal protein S6 kinase alpha-6 (RPS6KA6, Homo sapiens, UniProt Q9UK32)","enzyme activity, inhibitor",,1 µM,remaining activity,125%
FC(F)(F)c1cscc1CNc1cccc(-c2nnc[nH]2)c1,MTNR1A,"cAMP, agonist, luciferase",,,EC50,162 nM
Cc1ccc(Nc2ccccc2C(=O)OCC(=O)Nc2ccc(S(N)(=O)=O)cc2)cc1,CA9,"enzyme activity, inhibitor",,,IC50,77 nM
